Published values of several laboratories.
A part holds a random share of what one study measured. Changes are numbered by the printed parent chain.
Sequence of UniProt Q96RR4 (whole entry, looked up): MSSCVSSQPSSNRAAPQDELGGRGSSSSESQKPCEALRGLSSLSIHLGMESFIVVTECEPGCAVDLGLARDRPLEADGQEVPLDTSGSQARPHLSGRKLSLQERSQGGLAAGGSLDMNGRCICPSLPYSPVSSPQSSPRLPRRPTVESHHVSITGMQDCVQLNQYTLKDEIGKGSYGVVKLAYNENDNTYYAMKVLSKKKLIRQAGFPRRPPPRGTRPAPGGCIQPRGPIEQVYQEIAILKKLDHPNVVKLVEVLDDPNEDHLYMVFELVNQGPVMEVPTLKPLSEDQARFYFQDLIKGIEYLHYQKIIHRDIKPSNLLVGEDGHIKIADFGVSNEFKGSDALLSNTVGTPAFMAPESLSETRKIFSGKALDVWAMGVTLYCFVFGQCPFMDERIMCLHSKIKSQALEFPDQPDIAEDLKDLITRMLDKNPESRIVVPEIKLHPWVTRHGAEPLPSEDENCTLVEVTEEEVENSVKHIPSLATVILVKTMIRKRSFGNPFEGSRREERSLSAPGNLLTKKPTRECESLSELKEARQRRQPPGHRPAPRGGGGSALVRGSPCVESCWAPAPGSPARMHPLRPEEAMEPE

Set 1
Target: CCNE1, cyclin fold, Cln2 fusion (human)
Method: yeast growth competition, sequencing
Sample: yeast
Notes: weak parent motif
Relative to: not given
Reading: higher = stronger binding
Starting sequence: RB1 docking peptide (human); PKPLKKLRFDIEG
| Change | normalised enrichment score |
| --- | --- |
| AKPLKKLRFDIEG [P1A] | 0.271 |
| PKPLKKLDFDIEG [R8D] | 0.38 |
| PKPLKTLRFDIEG [K6T] | 0.538 |
| PKPLKKLRFDQEG [I11Q] | -0.951 |
| PKPLKQLRFDIEG [K6Q] | 0.0479 |
| PKPLKGLRFDIEG [K6G] | -0.215 |
| PKPLKKLRFDREG [I11R] | -0.985 |
| PKPLEKLRFDIEG [K5E] | 0.533 |

Set 2
Target: RNA binding protein fox-1 homolog 2, RRM domain, GST-SBP tag (RBFOX2, Homo sapiens, UniProt O43251-10, residues 100-194)
Method: RNA Bind-n-Seq
Molecule type: RNA
Sample: in vitro
Tested at: 365 nM
Notes: natural RNA segment, single round, ends assumed
Relative to: no-protein control
Reading: higher = stronger binding
All sequences stand within: GGGAGUUCUACAGUCCGACGAUC … UGGAAUUCUCGGGUGCCAA
Target sequence (chain): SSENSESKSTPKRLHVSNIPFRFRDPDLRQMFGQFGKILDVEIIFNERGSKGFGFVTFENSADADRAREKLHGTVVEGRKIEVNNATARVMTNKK
| Strand | RBNS enrichment (R) |
| --- | --- |
| UGUGCACCAAGCAGGAAAUGAAAAUGUCUUGUGUUACCUGAAAACACUGUGCACAUCUGUGUCUUGUUUGGAAUAUUGUCCAUUGUCCAAUCCUAUGUUUUUGUUCAAAG | 0.542 |
| GGCAUCCCAGCGCUGGACAACUUCCUGGACAAACUUAGGCAGCCUGAUACUGCCACAUGCUGCACAGUGCCCACCCAUCAGAAGACACCUUGAGACUGUCCCACAGUGCU | 1.13 |
| UUAGGGUUUCCCUGCCCACUCUGCAGGAGCAGAUGUUGGACAGGUAGCCAGUGGGAUGCCACUGCUUGCCACCACCUGUCCCCAGGCUUAGGUUUAGGGGAUGCGUAUAC | 0.215 |
| CCAUCUGGCCUGGCUGGAGCCAGGAACAGGAGGGACACUUCCCCAGAAUCCGCAUGUUUCCCCAGUGAUUACACUCCACUGCCACCGUGGUGCCUGGCUUUAACUCCCAC | 4 |
| UGUGCUUGGGGUCAGGAGUGCCAGGUUCCCAAGAGCAGCGUAAAACAUCCCUGUACCCCUUGACAGUUAUAAGCAUUUCUGCGUUAAACUUGAAGAUUCCAGAGAUUCCC | 1.2 |
| UUUUUAGUAGAGUCAGGGUUUCACCAUGUUGGCCAGGCUGGUCUUGAAUUCCUGACCUCAAAUGAUCCACGCACCUCAGCCUCCCAAAGUGCUGGAUUACAGGCAUGAGC | 1.35 |
| AUAGGGUGAUGUUCCGAAGGUGAGGAGCUUGAAACCCGUGGCGCUUUCUGCAGUUUGCAGGUUAUCAUUGUGAACUUUUUUUUUUUAAGAGUAAAAAGAAAUAUACCUAA | 1.6 |
| AUGCAAAUAUUACAUAUGAUGGGUGCAUUGUCAGAGGGAAAAUAUAUGUGUAUGUACACAUGUGUAUGUACACACACACACACACCUGCCAUACACUUUAGAAGAACGCU | 0.233 |

Set 3
Target: Fragile X messenger ribonucleoprotein 1, C-terminal low-complexity region (Fmr1, Mus musculus, UniProt P35922)
Method: RNA Bind-n-Seq
Molecule type: RNA
Sample: in vitro
Tested at: 200 nM
Notes: whole 134-nt RNA, ends assumed
With: 150 mM KCl
Relative to: input library
Reading: higher = stronger binding
All sequences stand within: GGGAGUUCUACAGUCCGACGAUC … UGGAAUUCUCGGGUGUCAAGG
| Strand | log2 enrichment |
| --- | --- |
| CCUGUGCUACACAUCGUAUGUACCGAAUCGGGGAAAAAAGGGAAAAAAGGGAAAAAAGGGAAAGUAUUAUGUUACGCCGUUCGGAUCUGC | -0.484 |
| CUGUGCUACACAUCGUAUGUACCGAAUCGGGGAAAAAAAGGAAAAAAAGGAAAAAAAGGGGAAAGUAUUAUGUUACGCCGUUCGGAUCUG | -0.892 |
| AGUCCUGUGCUACACAUCGUAUGUACCGAAUCGGGAAAAAGGGAAAGGGAAAAAGGGAAAGUAUUAUGUUACGCCGUUCGGAUCUGCACU | -0.285 |
| ACCAUGCAGGUGGGCAUCUUUGGGAAGUGGGGCAAGGGGGGGAUAGGGAGGGGGGUAACACUUUGGGAACAGGUCGUCCCAGGUCGUUUC | 0.741 |
| UAACUUUAGAGGAGGAUCAGAUGGAUAUGGCAGUGGACGUGGAUUUGGGGAUGGCUAUAAUGGGUAUGGAGGAGGACCUGGAGGUGGCAA | 0.189 |
| UCCUGUGCUACACAUCGUAUGUACCGAAUCGGCCCCCCGGGGCCCCCCGGGCCCCCCGGAAAGUAUUAUGUUACGCCGUUCGGAUCUGCA | -0.58 |
| UCAAGUCCUGUGCUACACAUCGUAUGUACCGAAUCGGGUUGGGUUGGGGUUGGGGAAAGUAUUAUGUUACGCCGUUCGGAUCUGCACUUC | 1.46 |
| CAAGUCCUGUGCUACACAUCGUAUGUACCGAAUCGGUUUGGAAAGGAAAAAAAGGAAAGUAUUAUGUUACGCCGUUCGGAUCUGCACUUC | -0.514 |

Mixed results
| SMILES | target | read-out | mode | tested at | relative to | quantity | result |
| --- | --- | --- | --- | --- | --- | --- | --- |
| CCCCc1c(-c2ccc(O)cc2)[nH]c2nccnc12 | Calcium/calmodulin-dependent protein kinase kinase 2 (CAMKK2, Homo sapiens, UniProt Q96RR4) | enzyme activity | inhibitor | 0.5 µM | control | remaining activity | 91.7% |

Repeated from above (set 1):
| Change | normalised enrichment score |
| --- | --- |
| AKPLKKLRFDIEG [P1A] | 0.271 |
| PKPLEKLRFDIEG [K5E] | 0.533 |
